Results gathered from unrelated publications.
Compare with care: the assays were run in different laboratories. Several values in a cell are separate wells, animals, samples, runs or records. ± marks the error that the study gave. ≈ marks a conversion by molar mass, not a printed value.

With `Nc1nc(-c2ccccc2)nc2[nH]nc(Nc3ccc(C(F)(F)F)cc3)c12` the clinical score was 0 (coxsackievirus B3; 31-1-93, NMRI mice, CVB3 chronic myocarditis; oral, 100 mg/kg twice daily, day 26, dosed days 0 to 6, score scale 0 to 7; direction not given).
With `CCCCCCCCCC(=O)N[C@@H](Cc1c[nH]c2ccccc12)C(=O)N[C@H](CC(N)=O)C(=O)N[C@@H](CC(=O)O)C(=O)N[C@@H]1C(=O)NCC(=O)N[C@@H](CCCN)C(=O)N[C@@H](CC(=O)O)C(=O)N[C@H](C)C(=O)N[C@@H](CC(=O)O)C(=O)NCC(=O)N[C@H](CO)C(=O)N[C@@H]([C@H](C)CC(=O)O)C(=O)N[C@@H](CC(=O)c2ccccc2N)C(=O)O[C@@H]1C` the MIC was over 128 µg/mL (Enterococcus; broth microdilution; VRE 155, Mueller-Hinton broth, Mg2+ 10 mg/L; 16 h, together with: Ca2+ 0 mM).
The IC50 of `COC(=O)c1cccc(Cn2ccc3ccc(-c4ccc5ccn(Cc6cccc(C(=O)O)c6)c5c4)cc32)c1` is reported as 13.4 µM (human immunodeficiency virus 1; viral attachment, MAGI cell; MAGI cells, Ba-L; 3 h postinfection washout, CCR5-tropic).
`Cc1cc(-c2cn[nH]c2-c2cccc(OCc3cccc(C#N)c3)c2)cc(C)n1`: antibacterial activity “inactive” (anaerobic commensal bacteria; up to 128 µg/mL, aqueous solubility limit).
`CN[C@H](CC(C)C)C(=O)N[C@H]1C(=O)N[C@@H](CC(N)=O)C(=O)N[C@H]2C(=O)N[C@H]3C(=O)N[C@H](C(=O)N[C@H](C(=O)O)c4cc(O)cc(O)c4-c4cc3ccc4O)[C@H](O)c3ccc(c(Cl)c3)Oc3cc2cc(c3O[C@@H]2O[C@H](CO)[C@@H](O)[C@H](O)[C@H]2O[C@H]2C[C@](C)(N)[C@H](O)[C@H](C)O2)Oc2ccc(cc2Cl)[C@H]1O` gave an MIC50 of 1 µg/mL (≈ 0.69 µM) (Staphylococcus aureus; MRSA, 10 isolates; pH 7.0).
`COc1ccc(NS(=O)(=O)c2ccc(N)cc2)cc1OC` gave a selectivity index of over 1.5 (Leishmania infantum; intracellular amastigote growth; U-937 macrophages and HeLa; baseline: IC50 HeLa over IC50 amastigotes).
Under “zone of inhibition”, `CCCCCCCNC1=C(n2cncn2)C(=O)c2ccccc2C1=O` is recorded as 9 mm (Alternaria alternata; ITCC 4522; 10 µg/mL).
`Cc1ccccc1-c1c(-c2ccccn2)nc2n1CCC2` gave an IC50 of 0.52 µM and 1.7 µM (Leishmania infantum; macrophages, MHOM/MA(BE)/67/ITMAP263, amastigote).
For `O=C1C[C@@H](c2ccc(O)cc2)Oc2cc(O)cc(O)c21`, the IC50 was over 100 µM (human immunodeficiency virus 1; viral replication; TZM-bl cells, BaL (CCR5-tropic); 48 h).
`COc1ccn2c(N)c(-c3ccccn3)nc2c1` has an IC50 of 5.28 µM and 21.1 µM (Leishmania infantum; macrophages, MHOM/MA(BE)/67/ITMAP263, amastigote).
`O=[N+]([O-])c1ccc(N2CCN(S(=O)(=O)c3ccc(Cl)cc3)CC2)cc1NCc1cccnc1` gave a larval mortality of 22% (Aedes aegypti; 100 µM, 48 h, 1 instar larvae).
`N#Cc1ccc(-c2c(-c3ccccn3)nc3n2CCC3)cc1` has an IC50 of 43.1 µM and 23.9 µM (Leishmania infantum; macrophages, MHOM/MA(BE)/67/ITMAP263, amastigote).
For `CC(C)n1ncc2c(C(=O)NCC3(C)CNC3)cc(C3CC3)nc21`, the cell protection was 102% and 97.1% (coxsackievirus A6; CPE; RD; 1.5 µM).
The IC50 of `Fc1ccc(Nc2c(-c3ccccn3)nc3ncccn23)cc1` is reported as 33.2 µM and > 64 µM (Leishmania infantum; macrophages, MHOM/MA(BE)/67/ITMAP263, amastigote).
For `NC(=O)c1ncn([C@@H]2O[C@H](CO)[C@@H](O)[C@H]2O)n1`, the inactivation activity was 51% and 62% and 49% (Tobacco mosaic virus; in vivo; 500 µg/mL).
`CN(c1ccc(F)cc1)c1c(-c2ccc(F)cn2)nc2ccccn12` has an IC50 of 0.76 µM and 2.52 µM (Leishmania infantum; macrophages, MHOM/MA(BE)/67/ITMAP263, amastigote).
For `[H]/N=C(/N)N[C@H]1[C@H](O)[C@@H](O)[C@H](O[C@@H]2O[C@@H](C)[C@](O)(C=O)[C@H]2O[C@@H]2O[C@@H](CO)[C@H](O)[C@@H](O)[C@@H]2NC)[C@@H](N/C(N)=N\[H])[C@@H]1O`, “inhibition zone diameter” read 15 ± 0.1 mm (Bacillus cereus; ATCC 14579; concentration not given).
With `CCN(c1ccc(F)cc1)c1c(-c2ccccn2)nc2ccccn12` the IC50 was 1.26 µM (Leishmania infantum; macrophages, MHOM/MA(BE)/67/ITMAP263, amastigote).
`[H]/N=C(\N/C(=N/[H])NCCCCCCNC(=N)NC(=N)Nc1ccc(Cl)cc1)Nc1ccc(Cl)cc1` — result for “zone of inhibition”: 17 ± 1.7 mm (Streptococcus gordonii; BHI agar; 500 µg/disc).

A few entries again:
`COc1ccc(NS(=O)(=O)c2ccc(N)cc2)cc1OC` gave a selectivity index of over 1.5 (Leishmania infantum; intracellular amastigote growth; U-937 macrophages and HeLa; baseline: IC50 HeLa over IC50 amastigotes).
The IC50 of `Fc1ccc(Nc2c(-c3ccccn3)nc3ncccn23)cc1` is reported as 33.2 µM and > 64 µM (Leishmania infantum; macrophages, MHOM/MA(BE)/67/ITMAP263, amastigote).
With `Nc1nc(-c2ccccc2)nc2[nH]nc(Nc3ccc(C(F)(F)F)cc3)c12` the clinical score was 0 (coxsackievirus B3; 31-1-93, NMRI mice, CVB3 chronic myocarditis; oral, 100 mg/kg twice daily, day 26, dosed days 0 to 6, score scale 0 to 7; direction not given).
